Assay results gathered from unrelated publications.
A part holds a random share of what one study measured.
Chain of UniProt Q96SW2 (whole entry, looked up): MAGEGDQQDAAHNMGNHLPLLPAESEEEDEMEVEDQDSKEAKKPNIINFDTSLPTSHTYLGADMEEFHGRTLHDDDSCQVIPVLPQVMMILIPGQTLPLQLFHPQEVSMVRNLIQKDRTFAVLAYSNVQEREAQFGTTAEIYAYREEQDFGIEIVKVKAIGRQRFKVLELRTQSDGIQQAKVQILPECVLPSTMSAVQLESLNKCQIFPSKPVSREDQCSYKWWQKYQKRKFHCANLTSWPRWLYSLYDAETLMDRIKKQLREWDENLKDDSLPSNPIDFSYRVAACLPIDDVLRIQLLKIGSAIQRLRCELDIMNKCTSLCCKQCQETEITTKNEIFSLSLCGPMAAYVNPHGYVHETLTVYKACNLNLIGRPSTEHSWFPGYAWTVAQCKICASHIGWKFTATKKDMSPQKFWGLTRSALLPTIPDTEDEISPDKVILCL
Chain of UniProt O95747 (whole entry, looked up): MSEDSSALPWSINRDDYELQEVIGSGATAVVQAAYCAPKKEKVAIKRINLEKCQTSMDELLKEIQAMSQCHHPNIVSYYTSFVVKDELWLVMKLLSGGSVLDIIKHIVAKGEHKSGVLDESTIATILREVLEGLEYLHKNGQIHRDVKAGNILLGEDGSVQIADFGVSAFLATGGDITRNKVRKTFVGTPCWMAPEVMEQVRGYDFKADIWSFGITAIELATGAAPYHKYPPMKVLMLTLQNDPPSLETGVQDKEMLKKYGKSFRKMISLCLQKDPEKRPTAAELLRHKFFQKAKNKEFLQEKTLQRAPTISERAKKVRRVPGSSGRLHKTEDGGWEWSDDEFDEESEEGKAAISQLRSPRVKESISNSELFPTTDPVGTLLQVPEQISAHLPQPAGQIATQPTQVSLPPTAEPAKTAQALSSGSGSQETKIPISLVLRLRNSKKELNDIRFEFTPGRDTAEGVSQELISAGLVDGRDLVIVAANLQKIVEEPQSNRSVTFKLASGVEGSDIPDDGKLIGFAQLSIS
Chain of UniProt Q9UKS7 (whole entry, looked up): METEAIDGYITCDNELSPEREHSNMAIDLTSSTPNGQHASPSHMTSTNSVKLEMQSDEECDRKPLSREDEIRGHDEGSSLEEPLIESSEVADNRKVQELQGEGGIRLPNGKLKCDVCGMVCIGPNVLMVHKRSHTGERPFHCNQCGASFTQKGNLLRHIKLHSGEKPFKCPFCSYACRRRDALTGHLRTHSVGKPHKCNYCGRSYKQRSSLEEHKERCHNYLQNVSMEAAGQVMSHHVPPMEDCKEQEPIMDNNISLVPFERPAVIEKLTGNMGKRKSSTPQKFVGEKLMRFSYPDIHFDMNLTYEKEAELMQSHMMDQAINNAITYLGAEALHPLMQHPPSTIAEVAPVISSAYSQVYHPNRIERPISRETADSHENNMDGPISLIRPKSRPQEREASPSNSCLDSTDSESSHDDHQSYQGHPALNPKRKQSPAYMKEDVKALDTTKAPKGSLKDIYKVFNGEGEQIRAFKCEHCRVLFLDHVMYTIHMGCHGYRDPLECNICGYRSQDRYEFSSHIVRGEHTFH
Chain of UniProt Q05397 (whole entry, looked up): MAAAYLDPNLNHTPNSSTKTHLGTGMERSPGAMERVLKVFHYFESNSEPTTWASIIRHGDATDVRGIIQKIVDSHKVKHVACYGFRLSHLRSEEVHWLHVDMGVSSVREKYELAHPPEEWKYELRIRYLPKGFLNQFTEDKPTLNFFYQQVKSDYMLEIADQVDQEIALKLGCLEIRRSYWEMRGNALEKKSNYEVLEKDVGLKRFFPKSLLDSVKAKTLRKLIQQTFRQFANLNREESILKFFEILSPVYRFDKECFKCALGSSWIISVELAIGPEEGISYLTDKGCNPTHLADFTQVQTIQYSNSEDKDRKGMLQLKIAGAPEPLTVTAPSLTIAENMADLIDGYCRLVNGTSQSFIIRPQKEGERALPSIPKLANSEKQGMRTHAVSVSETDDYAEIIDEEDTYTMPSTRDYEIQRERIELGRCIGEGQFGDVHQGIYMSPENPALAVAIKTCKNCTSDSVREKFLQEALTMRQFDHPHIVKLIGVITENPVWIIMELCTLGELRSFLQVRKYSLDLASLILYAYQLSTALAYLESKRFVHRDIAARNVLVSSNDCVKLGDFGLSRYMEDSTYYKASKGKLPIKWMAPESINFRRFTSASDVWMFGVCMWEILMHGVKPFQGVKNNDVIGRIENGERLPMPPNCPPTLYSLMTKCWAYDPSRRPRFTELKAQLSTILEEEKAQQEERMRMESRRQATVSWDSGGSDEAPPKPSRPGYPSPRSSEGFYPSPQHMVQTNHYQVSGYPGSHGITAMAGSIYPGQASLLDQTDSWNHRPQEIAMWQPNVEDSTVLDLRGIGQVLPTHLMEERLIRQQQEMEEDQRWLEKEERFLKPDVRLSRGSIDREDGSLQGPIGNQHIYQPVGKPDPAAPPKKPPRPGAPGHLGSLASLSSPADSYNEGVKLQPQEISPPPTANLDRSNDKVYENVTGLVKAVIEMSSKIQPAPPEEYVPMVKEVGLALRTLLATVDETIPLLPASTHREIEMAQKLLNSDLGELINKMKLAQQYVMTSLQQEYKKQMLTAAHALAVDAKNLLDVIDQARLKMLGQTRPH

Set 1
Structure (SMILES): CCN1/C(=C/C=C2\CCCC(/C=C/C3=[N+](CC)c4ccccc4C3(C)C)=C2NCCCCCCCCN2CCC(Nc3nc4ccccc4n3Cc3ccc(F)cc3)CC2)C(C)(C)c2ccccc21
Cell line: U-87 MG
Tested at: concentration not given
Relative to: DMSO
| measured | log2 fold change |
| --- | --- |
| SOX4 mRNA | 1.87 |
| PITPNM2 mRNA | -1.04 |
| GPR37L1 mRNA | 5.77 |
| PTGS2 mRNA | 4.36 |
| VOPP1 mRNA | -0.819 |
| CD276 mRNA | -1.03 |
| GAS6 mRNA | -1.21 |
| BEX4 mRNA | 1.99 |

Set 2
Target: E3 ubiquitin-protein ligase NEDD4 (Homo sapiens, UniProt P46934)
Read-out: enzyme activity
Mode: inhibitor
Method: TR-FRET
Tested at: 100 µM
Residues (P46934 938-1319, limits assumed): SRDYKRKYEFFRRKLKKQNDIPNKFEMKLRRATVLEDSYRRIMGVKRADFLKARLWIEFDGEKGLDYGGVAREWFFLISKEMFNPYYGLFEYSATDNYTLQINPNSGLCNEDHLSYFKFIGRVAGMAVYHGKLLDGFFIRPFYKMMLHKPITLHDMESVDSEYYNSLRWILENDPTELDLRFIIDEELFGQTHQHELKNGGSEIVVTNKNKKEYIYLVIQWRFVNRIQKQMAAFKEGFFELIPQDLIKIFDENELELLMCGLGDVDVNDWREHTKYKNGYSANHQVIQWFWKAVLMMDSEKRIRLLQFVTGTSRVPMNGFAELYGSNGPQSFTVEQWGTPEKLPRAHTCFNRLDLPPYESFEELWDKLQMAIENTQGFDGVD
| SMILES | inhibition [%] |
| --- | --- |
| COC(=O)/C=C/C(=O)NCCCN1c2ccccc2CCc2ccc(Cl)cc21 | < 10 |
| Cl.NC(=O)/C=C/CNCCCN1c2ccccc2CCc2ccc(Cl)cc21 | 51.3 |
| CNCCCN1c2ccccc2CCc2ccc(Cl)cc21 | 47.7 |
| COC(=O)CCCNCCCN1c2ccccc2CCc2ccc(Cl)cc21.COC(=O)CCCNCCCN1c2ccccc2CCc2ccc(Cl)cc21.O=C(O)/C=C/C(=O)O | 46.4 |
| C=CC(=O)NCCCN1c2ccccc2CCc2ccc(Cl)cc21 | < 10 |

Other studies, line by line
| Compound | target | test | system | conditions | measurement | result |
| --- | --- | --- | --- | --- | --- | --- |
| COc1cc(-c2nc3ccc(C(=O)NCCCN(C)C)cc3n2C2CCC2)cc(OC)c1OC | PTK2 (Homo sapiens, UniProt Q05397) | NanoBRET | – | 1 µM | receptor occupancy | -0.78% |
| O=C1CCC(N2Cc3c(ccc4c3OCC43CCN(Cc4ccccc4)CC3O)C2=O)C(=O)N1 (stereo not shown) | CRBN/Zinc finger protein Helios (Homo sapiens, UniProt Q96SW2+Q9UKS7) | degrader, HiBiT | HEK293 | 370.37 nM | protein remaining | 83.7% |
| COc1cc(-c2nc3ccc(C(=O)NCCCN4CCN(c5cccc(C)c5C)CC4)cc3n2C2CCC2)cc(OC)c1OC | OXSR1 (Homo sapiens, UniProt O95747) | binding, competition with immobilised ligand | – | 1 µM | remaining binding | 90% |

A few entries again (other studies, line by line):
| Compound | target | test | system | conditions | measurement | result |
| --- | --- | --- | --- | --- | --- | --- |
| COc1cc(-c2nc3ccc(C(=O)NCCCN4CCN(c5cccc(C)c5C)CC4)cc3n2C2CCC2)cc(OC)c1OC | OXSR1 (Homo sapiens, UniProt O95747) | binding, competition with immobilised ligand | – | 1 µM | remaining binding | 90% |
